Measured values gathered from unrelated publications.
± gives the spread as reported.
Cell line: HeLa

| SMILES | test | test system | conditions | scale | quantity | result |
| --- | --- | --- | --- | --- | --- | --- |
| O=C(CCC(=O)NCCS(=O)(=O)O)NCCNC(=O)[C@@H](Cc1ccccc1)NC(=O)[C@@H](Cc1ccccc1)NC(=O)CCNc1ccc([N+](=O)[O-])c2nonc12 |  |  | 200 µM, 24 h |  | decrease per PBS wash | ~25% |
| O=c1c(Br)c2oc3c(CN(Cc4ccccn4)Cc4cnccn4)c(O)ccc3nc-2c2ccccc12 | colocalisation with ER-Tracker |  |  |  | Pearson's coefficient | 0.652 |
| N[C@H]1C[C@@H]1c1ccc(-c2cccc(O)c2)cc1 | MTT |  | 50 µM, 12 h |  | cytotoxicity | not toxic |
| CC(=O)[O-].Nc1ccc(C([O-])=NN=Cc2ccc(OCC(=O)Nc3ccc(Cl)cc3)cc2)cc1.[Ni+2] | cytotoxicity, MTT |  | 24 h |  | IC50 | 24.2 ± 2.2 µM |
| COc1ccc(Cn2c(=O)n(O)c(=O)c3ccccc32)cc1 | cytotoxicity, colony formation | DMEM, foetal calf serum |  |  | EC50 | 6 µM |
| CC(=O)N[C@@H](CC(C)C)C(=O)N[C@H](C(=O)N[C@@H](Cc1ccccc1)C(=O)N[C@H]1CSCc2ccc(cn2)-c2ccc(nc2)CSC[C@@H](C(=O)N[C@@H](CO)C(N)=O)NC(=O)[C@H](CC(C)C)NC(=O)[C@H](CCCNC(=N)N)NC(=O)[C@H](C)NC(=O)[C@H](Cc2c[nH]c3ccccc23)NC(=O)[C@H](Cc2ccc(O)cc2)NC(=O)[C@H](CCCNC(=N)N)NC1=O)[C@@H](C)O | CellTiter-Glo |  | 10 µM |  | viability decrease | 50% |
| CC(C)CCCCCCCCCCCCc1cc(O)cc(O)c1 |  |  |  | no cytotoxicity up to value | highest non-cytotoxic concentration | > 200 µM |
| COC(=O)c1cc(O)c2ccccc2c1O |  |  | 20 µM |  | cytotoxicity | not toxic |
| CC[C@H](C)[C@H](NC(=O)[C@H](Cc1c[nH]c2ccccc12)NC(=O)[C@H](CCCNC(=O)c1ccc2c(c1)C(=O)OC21c2ccc(O)cc2Oc2cc(O)ccc21)NC(=O)CNC(=O)[C@H]1CCCN1C(=O)[C@@H](NC(=O)[C@H](CCCNC(=N)N)NC(=O)[C@@H](NC(=O)[C@H](Cc1c[nH]c2ccccc12)NC(=O)[C@H](CCCNC(=N)N)NC(C)=O)C(C)C)C(C)C)C(=O)N[C@@H](CCCNC(=N)N)C(=O)N[C@@H](CCC(N)=O)C(=O)N[C@@H](CC(C)C)C(=O)N[C@@H](CCCNC(=N)N)C(=O)NCC(=O)NCC(N)=O | peptide uptake, fluorescence microscopy |  | range over 80 to 160 µM, 90 min, 37 °C |  | Hill coefficient | 6.26 |
| O=C(CCC(=O)OCCNC(=O)[C@@H](Cc1ccccc1)NC(=O)[C@@H](Cc1ccccc1)NC(=O)CCNc1ccc([N+](=O)[O-])c2nonc12)NCCS(=O)(=O)O |  |  | 50 µM, 24 h |  | intracellular over medium concentration | ~3 fold |
| CN1/C(=C/C=C/c2cc(-c3ccccc3)cc(-c3ccccc3)[o+]2)C(C)(C)c2ccccc21 | cell growth or viability |  | 72 h |  | CC50 | 0.56 µg/mL |

Repeated from above:
| SMILES | test | test system | conditions | scale | quantity | result |
| --- | --- | --- | --- | --- | --- | --- |
| COC(=O)c1cc(O)c2ccccc2c1O |  |  | 20 µM |  | cytotoxicity | not toxic |
